Assay results collected from several papers.
Parts stem from different laboratories: compare values within a part only.

Block 1 — method: aptamer microarray, sandwich; form: DNA with 2'F-ANA; medium: in vitro; tested at: 200 nM; with: Cy3 exosite-II aptamer, 400 nM; reading: higher = stronger binding; quantity: mean fluorescence intensity; strand: GGTTGGTGTGGTTGG
Target: Prothrombin, mature alpha-thrombin (F2, Homo sapiens, UniProt P00734)
Notes: whole 15-mer aptamer, many near background
2'F-ANA at 2 3 9: 863 a.u.
2'F-ANA at 2 4 6 8 9 13 14: 127 a.u.
2'F-ANA at 4 5 6 7 8 9 10 11: 49.7 a.u.
2'F-ANA at 3 4 7 8 9 10 12 13 15: 281 a.u.
2'F-ANA at 1 2 3 9 10 11 13 14 15: 54.2 a.u.
2'F-ANA at 1 3 4 5 7 8 10 11 12 13 14 15: 122 a.u.
2'F-ANA at 2 3 4 7 9 12 13 15: 601 a.u.
2'F-ANA at 1 2 3 4 5 7 8 11: 52.9 a.u.
2'F-ANA at 3 5 6 8 9 10 11 12 14: 51.5 a.u.
2'F-ANA at 1 3 8 9 12 13 14 15: 107 a.u.
2'F-ANA at 1 2 3 4 6 8 9 10 12 13 14 15: 56.8 a.u.
2'F-ANA at 1 3 4 8 9 10 12 13: 67.5 a.u.
2'F-ANA at 1 4 5 9 12 13 15: 62.3 a.u.
2'F-ANA at 1 2 3 4 5 10 12 13 14 15: 50.9 a.u.
2'F-ANA at 1 3 4 5 6 7 9 10 12: 50.6 a.u.
2'F-ANA at 2 4 7 10 12 13: 108 a.u.
2'F-ANA at 1 2 5 6 12 13 14: 49.5 a.u.
2'F-ANA at 2 3 5 8 9 11 13 14 15: 55.2 a.u.
2'F-ANA at 1 2 6 8 9 11 12 14: 68.4 a.u.
2'F-ANA at 1 3 4 5 7 8 9 12 13 14 15: 51 a.u.
2'F-ANA at 4 6 7 9 10 14: 73.8 a.u.
2'F-ANA at 1 2 3 5 9 10 12 14: 51 a.u.
2'F-ANA at 1 2 3 5 6 7 8 10 12 13: 49.3 a.u.
2'F-ANA at 1 2 3 4 7 8 9 10 12 13 15: 68 a.u.
2'F-ANA at 2 4 7 13: 256 a.u.

Block 2 — method: RNA Bind-n-Seq; form: RNA; medium: in vitro; tested at: 200 nM; notes: whole 134-nt RNA, ends assumed; with: 150 mM KCl; baseline: input library; reading: higher = stronger binding; quantity: log2 enrichment
Target: Ras GTPase-activating protein-binding protein 1, full length (G3BP1, Homo sapiens, UniProt Q13283)
Chain of UniProt Q13283 (whole entry, looked up): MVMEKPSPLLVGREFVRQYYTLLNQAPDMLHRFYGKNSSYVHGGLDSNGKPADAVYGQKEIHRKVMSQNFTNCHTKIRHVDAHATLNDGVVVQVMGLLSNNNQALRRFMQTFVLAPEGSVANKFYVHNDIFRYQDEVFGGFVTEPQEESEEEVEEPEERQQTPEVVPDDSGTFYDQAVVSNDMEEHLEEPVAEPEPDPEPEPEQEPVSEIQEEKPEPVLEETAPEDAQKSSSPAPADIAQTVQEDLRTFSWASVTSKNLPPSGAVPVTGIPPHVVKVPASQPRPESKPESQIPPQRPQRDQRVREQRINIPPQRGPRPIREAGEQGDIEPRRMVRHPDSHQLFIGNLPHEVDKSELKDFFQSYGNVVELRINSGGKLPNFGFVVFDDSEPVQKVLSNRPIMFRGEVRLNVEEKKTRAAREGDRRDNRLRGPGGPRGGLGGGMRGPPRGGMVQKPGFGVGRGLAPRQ
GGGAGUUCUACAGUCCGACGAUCAGUCCUGUGCUACACAUCGUAUGUACCGAAUCGUGUGUGUGUGUGUGUGUGUGUGUGUAAAGUAUUAUGUUACGCCGUUCGGAUCUGCACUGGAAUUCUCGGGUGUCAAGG: 0.666
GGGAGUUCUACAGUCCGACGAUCGCUUAUGUAGACAUGAGGAAGAUUGGCAGUAGCCGGGGAAUGGUUUCUGCAUACCCUCGACAGCUAGAGUCAUUAAUCCGCUUAGCAGAAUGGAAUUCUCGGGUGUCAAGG: -0.216
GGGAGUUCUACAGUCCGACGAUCCCUGUGCUACACAUCGUAUGUACCGAAUCAAAUUUUUUUAAACCCCCCCAAAUUUUUAAAAAAGUAUUAUGUUACGCCGUUCGGAUCUGCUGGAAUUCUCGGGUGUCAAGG: 0.145
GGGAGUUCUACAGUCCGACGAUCAAGUCCUGUGCUACACAUCGUAUGUACCGAAUCGGAAAAGGGGAAAAGGGAAAAGGAAAGUAUUAUGUUACGCCGUUCGGAUCUGCACUUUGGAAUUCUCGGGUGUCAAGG: -0.925
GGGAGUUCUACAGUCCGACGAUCUCAAGUCCUGUGCUACACAUCGUAUGUACCGAAUCGGGGAAGGGGAAGGGAAGGGAAAGUAUUAUGUUACGCCGUUCGGAUCUGCACUUCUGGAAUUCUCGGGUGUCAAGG: 0.939
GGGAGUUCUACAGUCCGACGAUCUGGGAGGUGGAUUUUGUUUAUUUUUUUAGCUCAGUUCCAGGGGUGGGAAUUUUUUUUUAAUAUGUGUCAUGAAUAAAGUUGUUUUUGAAAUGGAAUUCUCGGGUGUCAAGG: 0.254
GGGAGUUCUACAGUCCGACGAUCUCCUGUGCUACACAUCGUAUGUACCGAAUCAAACCCAAAUUUUUUUAAACCCCCCCAAAAAAGUAUUAUGUUACGCCGUUCGGAUCUGCAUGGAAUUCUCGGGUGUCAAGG: 0.301
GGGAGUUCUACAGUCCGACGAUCCACAGACAACACGCACCCACACAGACACAGAGGGAAGGGGUUGGGAUGGGGACAGGUUGCACAGCAGGGCGGGGUAGGACCCCAGCCCCUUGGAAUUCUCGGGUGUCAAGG: 1.6
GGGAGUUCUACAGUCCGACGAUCUGCCAAAGUAUGGCAAGAAAUUGCUCCUGGAAAUACUGAUGCCACCCCAGUAACUCAUGGAACUGAAAGCUCUUGGCAUGAAAUAGCAGCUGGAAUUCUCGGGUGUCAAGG: 0.758
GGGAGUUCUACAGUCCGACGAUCCACAGACAAAACGCACCCACACAGACACAGAGGGAAGGGGUUGGGAUGGGGACAGGGUGCACAGCAGGGCGGGGUAGGACCCCAGCCCCUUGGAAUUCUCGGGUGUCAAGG: 1.84

Block 3 — method: competition protein-binding microarray; form: double-stranded DNA, one strand shown; medium: in vitro; tested at: 2 µM; with: Cbf1 competitor, 0.05 µM; reading: higher = stronger binding; quantity: fluorescence intensity
Target: Phosphate system positive regulatory protein PHO4, full length, GST-tagged (PHO4, Saccharomyces cerevisiae, UniProt P07270, residues 1-312)
Notes: whole 60-bp probe, lowest competitor level
Residues (chain): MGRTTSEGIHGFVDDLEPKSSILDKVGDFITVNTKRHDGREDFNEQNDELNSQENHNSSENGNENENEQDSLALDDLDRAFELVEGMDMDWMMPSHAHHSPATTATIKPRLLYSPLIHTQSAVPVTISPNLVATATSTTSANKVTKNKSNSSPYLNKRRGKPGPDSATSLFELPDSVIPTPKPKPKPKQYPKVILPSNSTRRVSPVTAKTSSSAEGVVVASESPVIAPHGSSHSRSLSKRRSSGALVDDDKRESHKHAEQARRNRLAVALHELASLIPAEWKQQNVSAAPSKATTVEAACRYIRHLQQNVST
TGCGCAACAACTTGGGACGTGGGTGTATGTCTAGAAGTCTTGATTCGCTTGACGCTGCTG: 7220 a.u.
CGGGGTTAAGTTTTTCACGTGGGGTGCTTGCAGCAGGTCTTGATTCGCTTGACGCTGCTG: 15200 a.u.
GCAGGTATGTTTTTCACCGTGAAGATGGACGCATCTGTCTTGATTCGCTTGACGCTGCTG: 3420 a.u.
TGAACAGAAACAAATCACATGTTTCCTTGGCAGAATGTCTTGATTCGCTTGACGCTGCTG: 10400 a.u.
CGGGGTTAAGTTTGAGAGGTGGGTGGCTTGCAGCAGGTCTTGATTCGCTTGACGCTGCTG: 4460 a.u.
CAAGTGTTGTTGGTGCTCGTGGTAATGCAGCGACTTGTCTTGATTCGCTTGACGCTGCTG: 9760 a.u.
TTATTTTATCAGAGCACCGTGGTCGACATCCAACGGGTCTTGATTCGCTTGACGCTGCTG: 7680 a.u.
AACGAGTCTGACGATGACGTGACTCGCTCCACTAAGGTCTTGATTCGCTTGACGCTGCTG: 3910 a.u.
GTCTTGTCTCATTGGCGCGTGGGTGTCCCCACTTCAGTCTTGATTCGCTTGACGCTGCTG: 10100 a.u.
TATCCAAGTGCCCATCACGTTTTTTTATTTAATGTAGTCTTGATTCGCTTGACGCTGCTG: 14000 a.u.
CGTCCTAGTGATTGTGGTGTGGGTGCCATGAGGAAGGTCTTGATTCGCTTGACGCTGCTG: 8360 a.u.
AGCAACCAAAGTACCCACGTGATTGTCTCCTGCCAAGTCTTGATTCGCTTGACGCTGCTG: 16600 a.u.
CGTCCTAGTGATTTTCACGTGGTTTCCATGAGGAAGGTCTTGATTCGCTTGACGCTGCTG: 13600 a.u.
AATCTCAGGTTTCGTCACGTTCTGGTGATGACTGTAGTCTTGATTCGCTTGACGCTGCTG: 12200 a.u.
CTTTCCCGATCTTGAGCGGTGGGTGTAGCACATTTGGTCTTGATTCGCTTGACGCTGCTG: 4720 a.u.
GTCGACCATTTTGCCACCGTGTCTGTGTGCTCGAGCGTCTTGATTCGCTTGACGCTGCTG: 6390 a.u.
CTAACGAAGGTTTGTCACCCGACTTACAAGCCAAGTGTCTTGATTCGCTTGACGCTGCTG: 3260 a.u.

Block 4 — method: RNA Bind-n-Seq; form: RNA; medium: in vitro; tested at: not given; baseline: input RNA pool; reading: higher = stronger binding; quantity: bound/input enrichment
Target: RING finger protein unkempt homolog, zinc fingers 1-6, GST-SBP tag (UNK, Homo sapiens, UniProt Q9C0B0, residues 30-357)
Chain of UniProt Q9C0B0 (30-357, looked up): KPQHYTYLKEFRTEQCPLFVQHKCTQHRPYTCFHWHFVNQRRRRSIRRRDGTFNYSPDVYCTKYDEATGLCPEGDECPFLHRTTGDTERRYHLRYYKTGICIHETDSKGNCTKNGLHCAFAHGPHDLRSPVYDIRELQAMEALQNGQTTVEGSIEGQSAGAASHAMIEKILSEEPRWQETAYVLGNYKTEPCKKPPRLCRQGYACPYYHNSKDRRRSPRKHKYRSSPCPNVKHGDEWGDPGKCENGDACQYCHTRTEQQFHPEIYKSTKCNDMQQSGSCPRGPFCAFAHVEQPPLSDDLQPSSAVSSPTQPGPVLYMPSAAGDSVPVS
Notes: RNA with constant flanks, human and mouse sites, ends assumed
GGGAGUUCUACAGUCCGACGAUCGCUGGAUAUGGAGACAUUUACCUCAAUGCUGGUCCCAUGUUGUUUAGUGGAGACAAGGACCAUAGAUUUGAAUAUAGCCAUGGUCCUAUCACAGUCCUCACAAACAGCAAUGACCCUUCCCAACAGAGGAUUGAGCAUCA: 0.117 ratio
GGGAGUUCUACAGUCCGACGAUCAUUAAAAUAUUACUACUGGGUUAUUAACCCUGCUGACAGCAGUGGCAUUGCACCUAAAGGACUAGGUAAGCUCCUCUGCGGCCUCAUUUCCAUUUUCCUGUGUUUAGAUCCGGGGUGCAGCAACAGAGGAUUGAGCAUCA: 0.96 ratio
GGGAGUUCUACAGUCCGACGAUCGCCUCUUGCCUUUUUUUUUAAUUUUAAAUUAUCUAAAUUUAUUGUUUGUUAUGGUGUCAAUAGCAGUGUUUUUCUAUCAGUUUUGUCACUCCUCCUACCCCACCUUGGACUCGUUUGAGACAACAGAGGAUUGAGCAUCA: 9.49 ratio
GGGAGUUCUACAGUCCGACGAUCCAGUUGGAUGCCAGUAUUCCAGUCACUUUUACAAAGGACAAUAGAGUUCAUAUUGGACCCAAAAUGGAAAUCCGAGUAGUCACAUUAGGAUUAGAUGGUGCUGGAAAAACUACCAUUUUGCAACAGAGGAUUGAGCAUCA: 4.84 ratio
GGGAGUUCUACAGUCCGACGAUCCUCCAAGUUCGAAGCAUUCAGCAAACAAUGGCAAGGCAGAGCCACCAGAAACGUACACCUGAUUUUCAUGACAAAUACGGUAAUGCUGUAUUAGCUAGUGGAGCCACUUUCUGUAUUGUUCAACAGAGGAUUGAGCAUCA: 0.181 ratio
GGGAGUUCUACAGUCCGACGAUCAAAUAAAUAUUUAAUUUUUUAAAUUGCUCUUGUAUAAUCAGAUGCCCCUUUUAGUAUUAUUUUAGAAGCGUUGGGAGGGUUUUGCCUAAAGUACAAUUUAUCGGGAAAAACUAGAUUUUACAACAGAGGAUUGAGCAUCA: 74.1 ratio
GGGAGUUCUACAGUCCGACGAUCAACCUCCUCAUCCAGAGCAUUCCGGGCUUCUGGGGGCAAGCUUUUCAGAACCAUCCCCAGCUGUCAGCUUUUCUGAAUACCAAAGAUAAGGAGGUAUUGAGCUAUUUGAACAGACUGGAGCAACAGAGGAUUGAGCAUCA: 0.128 ratio
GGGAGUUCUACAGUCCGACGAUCAAAGAUGGAGAAAAGCAAGAUCUUUGAUAUCUUUCAUGUUUGCCUGCAGUUGAACAAUACUUUAGAGUACUUUUUAAAAUUAUUUCUCACAAAGAAAUGAAUGUACAAUCCAAUGAAAACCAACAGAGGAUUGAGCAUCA: 4.73 ratio

For quick reference, copied from above (block 1):
2'F-ANA at 3 5 6 8 9 10 11 12 14: 51.5 a.u.
2'F-ANA at 1 3 8 9 12 13 14 15: 107 a.u.
2'F-ANA at 1 2 3 4 6 8 9 10 12 13 14 15: 56.8 a.u.
2'F-ANA at 1 3 4 8 9 10 12 13: 67.5 a.u.
2'F-ANA at 1 4 5 9 12 13 15: 62.3 a.u.
2'F-ANA at 1 2 3 4 5 10 12 13 14 15: 50.9 a.u.
